Results from different studies.
Several values in a cell are separate wells, animals, samples, runs or records. ± gives the spread as reported.
CNR1 I245M: Cannabinoid receptor 1 (CNR1, Homo sapiens, UniProt P21554, I245M)
UniProt P21554, sequence (whole entry, unmodified, looked up): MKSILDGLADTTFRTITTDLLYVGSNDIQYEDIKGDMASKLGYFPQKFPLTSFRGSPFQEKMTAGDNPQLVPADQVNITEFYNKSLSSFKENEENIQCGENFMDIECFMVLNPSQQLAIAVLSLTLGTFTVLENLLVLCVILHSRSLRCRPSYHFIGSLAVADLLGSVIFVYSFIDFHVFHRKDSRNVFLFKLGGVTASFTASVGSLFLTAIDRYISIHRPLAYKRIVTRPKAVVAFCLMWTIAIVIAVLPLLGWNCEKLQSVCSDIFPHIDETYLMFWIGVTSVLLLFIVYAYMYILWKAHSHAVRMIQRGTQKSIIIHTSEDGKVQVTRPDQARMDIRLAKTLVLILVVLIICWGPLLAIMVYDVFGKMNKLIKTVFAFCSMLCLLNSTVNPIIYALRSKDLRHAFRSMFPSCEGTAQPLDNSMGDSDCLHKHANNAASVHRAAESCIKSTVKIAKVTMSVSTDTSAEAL
ADRB2: Beta-2 adrenergic receptor (ADRB2, Homo sapiens, UniProt P07550)
UniProt P07550, sequence (whole entry, looked up): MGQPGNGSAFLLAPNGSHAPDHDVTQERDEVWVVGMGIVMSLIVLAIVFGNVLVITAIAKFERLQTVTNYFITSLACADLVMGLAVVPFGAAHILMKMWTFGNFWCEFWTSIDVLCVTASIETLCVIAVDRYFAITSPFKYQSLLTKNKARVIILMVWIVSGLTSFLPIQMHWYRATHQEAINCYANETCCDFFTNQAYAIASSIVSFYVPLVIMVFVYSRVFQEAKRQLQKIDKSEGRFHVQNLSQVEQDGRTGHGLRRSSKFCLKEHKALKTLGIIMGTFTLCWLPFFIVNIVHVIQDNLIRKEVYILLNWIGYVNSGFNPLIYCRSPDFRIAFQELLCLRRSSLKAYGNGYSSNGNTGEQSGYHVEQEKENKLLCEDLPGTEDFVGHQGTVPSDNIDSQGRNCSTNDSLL
UniProt Q01959, sequence (whole entry, unmodified, looked up): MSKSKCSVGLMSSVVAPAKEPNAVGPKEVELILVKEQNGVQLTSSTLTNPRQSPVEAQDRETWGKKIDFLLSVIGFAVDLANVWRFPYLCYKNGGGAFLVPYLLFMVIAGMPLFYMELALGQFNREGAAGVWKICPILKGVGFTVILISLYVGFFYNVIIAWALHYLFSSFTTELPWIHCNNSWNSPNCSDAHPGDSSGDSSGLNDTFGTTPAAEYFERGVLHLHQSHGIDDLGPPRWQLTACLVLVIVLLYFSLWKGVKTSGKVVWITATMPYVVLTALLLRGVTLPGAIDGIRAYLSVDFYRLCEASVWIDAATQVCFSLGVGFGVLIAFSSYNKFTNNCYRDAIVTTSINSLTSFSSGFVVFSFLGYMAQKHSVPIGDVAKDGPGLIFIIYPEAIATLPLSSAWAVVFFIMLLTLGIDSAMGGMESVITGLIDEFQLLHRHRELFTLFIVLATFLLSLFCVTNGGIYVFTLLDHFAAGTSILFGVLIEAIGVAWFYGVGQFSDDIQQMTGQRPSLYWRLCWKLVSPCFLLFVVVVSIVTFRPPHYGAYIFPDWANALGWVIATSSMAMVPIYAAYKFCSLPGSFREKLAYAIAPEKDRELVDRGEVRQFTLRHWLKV
UniProt O00329, sequence (whole entry, looked up): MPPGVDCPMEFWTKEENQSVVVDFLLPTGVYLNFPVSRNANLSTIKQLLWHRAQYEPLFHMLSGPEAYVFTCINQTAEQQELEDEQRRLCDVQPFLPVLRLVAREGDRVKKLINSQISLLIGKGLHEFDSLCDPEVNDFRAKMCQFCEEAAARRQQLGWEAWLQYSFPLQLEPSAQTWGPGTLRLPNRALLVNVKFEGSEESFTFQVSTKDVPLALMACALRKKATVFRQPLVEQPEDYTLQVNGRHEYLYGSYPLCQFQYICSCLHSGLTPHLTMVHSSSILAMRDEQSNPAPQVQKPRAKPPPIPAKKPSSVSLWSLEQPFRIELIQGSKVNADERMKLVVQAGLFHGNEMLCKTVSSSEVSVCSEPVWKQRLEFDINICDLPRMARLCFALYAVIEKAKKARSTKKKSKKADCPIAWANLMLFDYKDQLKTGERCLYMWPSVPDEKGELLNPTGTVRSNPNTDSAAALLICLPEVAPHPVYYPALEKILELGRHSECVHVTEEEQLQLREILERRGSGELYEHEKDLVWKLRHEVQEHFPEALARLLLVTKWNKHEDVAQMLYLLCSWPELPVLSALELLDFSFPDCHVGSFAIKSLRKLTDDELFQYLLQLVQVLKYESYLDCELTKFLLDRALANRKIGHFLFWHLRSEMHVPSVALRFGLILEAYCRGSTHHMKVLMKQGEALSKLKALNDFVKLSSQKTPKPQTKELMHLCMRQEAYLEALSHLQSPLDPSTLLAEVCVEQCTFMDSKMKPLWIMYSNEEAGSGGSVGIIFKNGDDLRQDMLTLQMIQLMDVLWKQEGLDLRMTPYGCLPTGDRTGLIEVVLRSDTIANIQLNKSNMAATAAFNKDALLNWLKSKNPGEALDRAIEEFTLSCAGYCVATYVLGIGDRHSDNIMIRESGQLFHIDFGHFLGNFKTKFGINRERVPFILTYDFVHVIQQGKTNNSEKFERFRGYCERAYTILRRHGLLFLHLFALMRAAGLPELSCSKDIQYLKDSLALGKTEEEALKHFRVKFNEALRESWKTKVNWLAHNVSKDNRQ
UniProt P56817, sequence (whole entry, looked up): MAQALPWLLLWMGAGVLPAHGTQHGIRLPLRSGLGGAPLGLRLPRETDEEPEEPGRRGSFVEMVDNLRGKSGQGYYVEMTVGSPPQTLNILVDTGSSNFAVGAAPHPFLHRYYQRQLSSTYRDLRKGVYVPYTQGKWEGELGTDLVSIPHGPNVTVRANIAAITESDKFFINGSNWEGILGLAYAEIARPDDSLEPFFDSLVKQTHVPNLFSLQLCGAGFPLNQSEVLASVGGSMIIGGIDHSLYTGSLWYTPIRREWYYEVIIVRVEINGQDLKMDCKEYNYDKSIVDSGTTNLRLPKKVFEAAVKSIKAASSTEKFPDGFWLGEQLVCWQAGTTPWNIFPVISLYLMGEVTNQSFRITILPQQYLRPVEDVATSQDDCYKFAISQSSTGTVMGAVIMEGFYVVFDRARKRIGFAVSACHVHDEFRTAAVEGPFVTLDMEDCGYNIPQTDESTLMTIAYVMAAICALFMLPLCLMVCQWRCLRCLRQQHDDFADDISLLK
UniProt P41143, sequence (whole entry, unmodified, looked up): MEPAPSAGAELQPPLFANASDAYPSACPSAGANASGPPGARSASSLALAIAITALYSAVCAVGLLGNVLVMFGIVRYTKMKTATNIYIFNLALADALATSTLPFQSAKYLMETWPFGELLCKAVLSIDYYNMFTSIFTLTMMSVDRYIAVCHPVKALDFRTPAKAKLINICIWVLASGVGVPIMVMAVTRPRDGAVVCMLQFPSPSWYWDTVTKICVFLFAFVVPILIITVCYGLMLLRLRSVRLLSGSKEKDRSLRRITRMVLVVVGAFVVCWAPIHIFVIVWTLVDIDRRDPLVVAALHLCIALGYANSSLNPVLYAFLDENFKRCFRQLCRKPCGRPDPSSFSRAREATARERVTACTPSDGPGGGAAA
UniProt Q9P0L9, sequence (whole entry, unmodified, looked up): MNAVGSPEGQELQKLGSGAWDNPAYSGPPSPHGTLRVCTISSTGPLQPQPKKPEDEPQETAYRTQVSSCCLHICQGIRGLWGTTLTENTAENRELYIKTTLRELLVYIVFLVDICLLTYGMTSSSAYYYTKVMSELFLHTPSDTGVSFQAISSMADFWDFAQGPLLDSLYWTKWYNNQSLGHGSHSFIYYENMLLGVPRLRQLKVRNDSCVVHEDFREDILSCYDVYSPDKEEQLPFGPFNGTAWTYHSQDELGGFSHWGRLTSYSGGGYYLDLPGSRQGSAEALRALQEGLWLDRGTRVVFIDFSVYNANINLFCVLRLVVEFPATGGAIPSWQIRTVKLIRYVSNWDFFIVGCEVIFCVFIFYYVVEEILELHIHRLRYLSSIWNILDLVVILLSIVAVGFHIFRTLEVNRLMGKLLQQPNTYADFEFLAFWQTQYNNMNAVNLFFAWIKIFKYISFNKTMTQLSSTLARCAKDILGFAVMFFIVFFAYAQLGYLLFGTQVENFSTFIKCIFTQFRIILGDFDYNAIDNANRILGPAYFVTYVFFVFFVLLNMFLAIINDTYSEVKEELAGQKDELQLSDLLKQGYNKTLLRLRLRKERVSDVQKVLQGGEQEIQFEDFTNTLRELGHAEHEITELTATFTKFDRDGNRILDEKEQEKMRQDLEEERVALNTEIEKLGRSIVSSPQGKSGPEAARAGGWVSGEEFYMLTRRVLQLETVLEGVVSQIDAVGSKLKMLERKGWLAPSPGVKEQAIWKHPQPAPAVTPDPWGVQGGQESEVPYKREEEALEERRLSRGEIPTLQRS
UniProt Q16581, sequence (whole entry, looked up): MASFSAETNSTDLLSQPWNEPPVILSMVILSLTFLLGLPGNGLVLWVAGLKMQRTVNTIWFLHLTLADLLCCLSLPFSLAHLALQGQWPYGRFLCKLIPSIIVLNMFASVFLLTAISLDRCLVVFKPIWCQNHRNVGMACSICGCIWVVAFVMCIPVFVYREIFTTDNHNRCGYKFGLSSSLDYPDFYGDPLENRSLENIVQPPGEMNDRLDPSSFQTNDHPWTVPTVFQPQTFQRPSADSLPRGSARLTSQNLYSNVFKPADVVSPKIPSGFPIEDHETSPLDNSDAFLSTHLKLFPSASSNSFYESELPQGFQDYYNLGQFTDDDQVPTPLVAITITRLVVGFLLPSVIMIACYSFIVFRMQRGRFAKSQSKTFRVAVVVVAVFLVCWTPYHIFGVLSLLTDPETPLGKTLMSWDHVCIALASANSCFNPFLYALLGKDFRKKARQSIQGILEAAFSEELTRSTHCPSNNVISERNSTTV

Structure (SMILES) = COc1ccccc1C(C[N+](=O)[O-])c1c(-c2ccccc2)[nH]c2ccccc12 (stereo not shown); tested on = CNR1 I245M; assay = G protein activation, agonist, BRET; quantity = EC50; result = 0.59 µM
Structure (SMILES) = Cc1ccc(OCCN(C)C)cc1C(=O)N[C@H](C)c1cc(-c2cccs2)nc2ccccc12; tested on = Vero E6; conditions = 250 µM; quantity = viability; result = 10.6% and 10.2%
Structure (SMILES) = CCN(CC)C(=O)[C@@H]1C=C2c3cccc4c3c(cn4C(=O)c3ccco3)C[C@H]2N(C)C1; tested on = ADRB2; assay = ligand displacement, radioligand; quantity = Ki; result = > 10 µM
Structure (SMILES) = Cc1ccc(OCCN(C)C)cc1C(=O)N[C@H](C)c1cc(-c2cccnc2N2CCCC2)nc2ccccc12; tested on = Vero E6; conditions = 250 µM; quantity = viability; result = 0% and -0.228%
Structure (SMILES) = CC(C)CC(C(=O)N1CC2(CC1C#N)C(=O)Nc1ccccc12)N(C)C(=O)c1cc2c(F)cc(F)c(F)c2[nH]1 (stereo not shown); tested on = Beta-secretase 1 (BACE1, Homo sapiens, UniProt P56817); quantity = IC50; result = > 100 µM
Structure (SMILES) = O=C1NC2(CC2)COc2ncc(F)cc2[C@H]2COCCN2c2ccn3ncc1c3n2; test system = Sprague-Dawley rat, female, kidneys; conditions = oral, 20 mg/kg/day, 4 weeks dosing, end of recovery; quantity = organ-to-body weight ratio; result = 0.728 ± 0.077%
Structure (SMILES) = O=[N+]([O-])CC(c1ccco1)c1c(-c2ccccc2)[nH]c2ccccc12 (stereo not shown); tested on = Cannabinoid receptor 1 (CNR1, Homo sapiens, UniProt P21554, L252A); assay = G protein activation, agonist, BRET; quantity = EC50; result = > 1000 µM
Structure (SMILES) = CN(CCc1ccc(Cl)c(Cl)c1)CC(O)COc1ccc(NS(C)(=O)=O)cc1 (stereo not shown); tested on = PKD2L1 (Homo sapiens, UniProt Q9P0L9, F514A); assay = ion current; quantity = IC50; result = 3.8 µM
Structure (SMILES) = CN(C)[C@H]1C[C@@]23CC[C@@]4(O2)C(=CC[C@]2(C)[C@@H](c5ccc6ccncc6c5)CC[C@H]24)C=C3[C@@H](O)[C@@H]1O; tested on = Phosphatidylinositol 4,5-bisphosphate 3-kinase catalytic subunit delta isoform (PIK3CD, Homo sapiens, UniProt O00329); assay = ATP probe labelling, inhibitor, KiNativ profiling; conditions = 1 µM; quantity = inhibition; result = -8.9%
Structure (SMILES) = CCN(CC)C(=O)c1ccc(C(c2cccc(O)c2)N2CC(C)N(Cc3ccccc3)CC2C)cc1 (stereo not shown); tested on = Delta-type opioid receptor (OPRD1, Homo sapiens, UniProt P41143, N90S); quantity = Ki; result = 0.00035 ± 0.00015 µM
Structure (SMILES) = Cc1cc(C(c2ccc(Cl)cc2)c2ccc(Cl)cc2)sc1C(=O)N[C@@H](CCCNC(=N)N)C(=O)O; tested on = C3a anaphylatoxin chemotactic receptor (C3AR1, Homo sapiens, UniProt Q16581); assay = β-arrestin-1 recruitment, agonist, NanoBiT; quantity = EC50; result = 0.132 µM
Structure (SMILES) = Cc1ccc2c(C(C[N+](=O)[O-])c3cccs3)c(-c3ccccc3)[nH]c2c1 (stereo not shown); tested on = CNR1 I245M; assay = G protein activation, agonist, BRET; quantity = EC50; result = 0.17 µM
Structure (SMILES) = CCC[C@H](C(=O)c1ccccc1)N1CCCC1; tested on = Sodium-dependent dopamine transporter (SLC6A3, Homo sapiens, UniProt Q01959, S149A); assay = transporter uptake, inhibitor, radiometric; quantity = Ki; result = 2.34 µM
Structure (SMILES) = CN(C)[C@H](CNC(=O)/C=C/c1cccc2ccccc12)Cc1ccc(O)cc1; tested on = Muscarinic acetylcholine receptor M1 (CHRM1, Homo sapiens, UniProt P11229); assay = cell-free assay; quantity = Ki; result = 11 µM
Structure (SMILES) = O=C(O)CCn1c(=O)oc2cc(Cl)c(Cl)cc21; tested on = ADRB2; assay = agonist; quantity = EC50; result = > 100 µM
Structure (SMILES) = CC(C)[C@H]1NC(=O)C[C@H]2/C=C/CCSSC[C@@H](NC1=O)C(=O)N[C@H](Cc1cccc3ccccc13)C(=O)NCC(=O)O2; tested on = Cell division cycle 7-related protein kinase, with DBF4 (CDC7, Homo sapiens, UniProt O00311); conditions = 10 µM; quantity = inhibition; result = -0.6%

A few entries again:
Structure (SMILES) = CCN(CC)C(=O)[C@@H]1C=C2c3cccc4c3c(cn4C(=O)c3ccco3)C[C@H]2N(C)C1; tested on = ADRB2; assay = ligand displacement, radioligand; quantity = Ki; result = > 10 µM
Structure (SMILES) = Cc1ccc(OCCN(C)C)cc1C(=O)N[C@H](C)c1cc(-c2cccnc2N2CCCC2)nc2ccccc12; tested on = Vero E6; conditions = 250 µM; quantity = viability; result = 0% and -0.228%
